Measured values from different studies.
± marks the error that the study gave.

| Compound | assay | test system | conditions | fraction unbound |
| --- | --- | --- | --- | --- |
| c1ccc(CCc2nnn[nH]2)cc1 |  | human plasma |  | 0.01 |
| Cc1onc(-c2c(F)cccc2Cl)c1C(=O)N[C@@H]1C(=O)N2[C@@H]1SC(C)(C)[C@@H]2C(=O)O |  | spiked plasma of healthy donors |  | 0.04 to 0.05 |
| c1cc(-c2ccc3ncnc(Nc4ncco4)c3c2)cc(N2C[C@H]3C[C@@H]2CO3)c1 |  | human plasma |  | 0.0089 |
| CNC(C)Cc1ccc2c(c1)OCO2 (centres unmarked) | rapid equilibrium dialysis | human plasma | 1000 ng/mL | 0.88 |
| O=c1c(O)c(Cc2ccccc2)c1=O |  | human plasma |  | 0.08 |
| CCCC[C@@H]1NC(=O)[C@H](Cc2ccc(O)cc2)NC(=O)[C@@H]2CCCN2C(=O)[C@H](CC(=O)O)NC(=O)[C@H](C)NC(=O)[C@H](Cc2ccccc2)NC(=O)[C@@H]2CSCCC(=O)N3CN(CN(C3)C(=O)CCSC[C@@H](C(N)=O)NC1=O)C(=O)CCSCCC(=O)N[C@@H](CC(C)(C)C)C(=O)N1CCC[C@H]1C(=O)N[C@@H](CCC(=O)O)C(=O)N[C@H](CCCCNC(=O)CCc1cn(CCOCCOCCOCCN(CCOCCOCCOCCC(=O)N[C@H]3CSCCC(=O)N4CN5CN(C4)C(=O)CCSC[C@H](NC(=O)[C@@H](CC(=O)O)NC(=O)[C@H](Cc4cccc6ccccc46)NC(=O)[C@@H]4CCCN4C3=O)C(=O)N[C@@H](CCSC)C(=O)N[C@@H](CCCCNC(=N)N)C(=O)N[C@@H](CC(=O)O)C(=O)N[C@@H](Cc3c[nH]c4ccccc34)C(=O)N[C@@H](CO)C(=O)N[C@@H]([C@@H](C)O)C(=O)N3CCC[C@H]3C(=O)N3C[C@H](O)C[C@H]3C(=O)N[C@@H](Cc3c[nH]c4ccccc34)C(=O)N[C@H](C(N)=O)CSCCC5=O)CCOCCOCCOCCn3cc(CCC(=O)NCCCC[C@H]4NC(=O)[C@H](CCC(=O)O)NC(=O)[C@@H]5CCCN5C(=O)[C@H](CC(C)(C)C)NC(=O)CCSCCC(=O)N5CN6CN(C5)C(=O)CCSC[C@H](NC(=O)[C@H](Cc5ccc(O)cc5)NC(=O)[C@@H]5CCCN5C4=O)C(=O)N[C@@H](Cc4ccccc4)C(=O)N[C@@H](C)C(=O)N[C@@H](CC(=O)O)C(=O)N4CCC[C@H]4C(=O)N[C@@H](Cc4ccc(O)cc4)C(=O)N[C@@H](CCCC)C(=O)N[C@H](C(N)=O)CSCCC6=O)nn3)nn1)C(=O)N1CCC[C@H]1C(=O)N[C@@H](Cc1ccc(O)cc1)C(=O)N2 | ultracentrifugation | rat plasma |  | 0.088 |
| O=S(=O)(Cc1ccccc1)c1ccccc1O |  | human plasma |  | 0.02 |
| N=C(CC(O)c1cc2c(F)cc(F)cc2c2cc(C(F)(F)F)ccc12)Nc1ccc(Br)cc1 (centres unmarked) | equilibrium dialysis | human plasma | 100 ng/mL, 24 h, 0.9% saline dilution | 0.001 |
| CN1C(=O)Cc2ccc(F)c(CCNCC[C@H]3CN(c4ccc5c(n4)NC(=O)CO5)C(=O)O3)c21 | equilibrium dialysis | human plasma, 10% | 10 µM, 18 h | 0.08 |
| NC(=O)N1c2ccccc2C=Cc2ccccc21 | equilibrium dialysis | human plasma | 5 µM, 6 h | 0.31 |
| CC(C)N(CCC(C(N)=O)(c1ccccc1)c1ccccn1)C(C)C (centres unmarked) | equilibrium dialysis | human plasma |  | 0.161 |
| Cc1sc2c(c1C)C(c1ccc(Cl)cc1)=N[C@@H](CC(=O)Nc1ccc(O)cc1)c1nnc(C)n1-2 | equilibrium dialysis | mouse plasma | 10 µM, 4 h, pH 7.4 | 0.0199 ± 0.0034 |
| CN1C(=O)Cc2ccc(F)c(CNCCCC3CN(c4ccc5c(n4)NC(=O)CO5)C(=O)O3)c21 (centres unmarked) | equilibrium dialysis | human plasma, 10% | 10 µM, 18 h | 0.09 |
| O=c1[nH]c(CCc2ccccc2)ns1 |  | human plasma |  | 0.01 |
| COc1ccc2c(c1)[C@]13CCCC[C@@H]1[C@H](C2)N(C)CC3 | rapid equilibrium dialysis | rat plasma | 2 µM, 6 h, pH 7.4 | 0.39 |
| CC(C)(C)NC(=O)[C@@H]1C[C@@H]2CCCC[C@@H]2CN1C[C@@H](O)[C@H](Cc1ccccc1)NC(=O)[C@H](CC(N)=O)NC(=O)c1ccc2ccccc2n1 |  | human, maternal placental perfusate | pH 7.4 | 0.06 |
| O=[PH](O)CCc1ccccc1 |  | human plasma |  | 0.09 |
| CN1C(=O)Cc2ccc(F)c(CCNC[C@H]3CN(c4ccc5c(n4)NC(=O)CO5)C(=O)O3)c21 | equilibrium dialysis | human plasma, 10% | 10 µM, 18 h | 0.02 |
| O=c1[nH]c(CCc2ccccc2)no1 |  | human plasma |  | 0.01 |
| C=CC(=O)N[C@H]1C=C(C)c2c(-c3cnc4ccccc4c3)c3c(N)ncnc3n2C1 |  | rat brain slices |  | 0.119 ± 0.03 |

Some of these lines once more:
| Compound | assay | test system | conditions | fraction unbound |
| --- | --- | --- | --- | --- |
| CC(C)(C)NC(=O)[C@@H]1C[C@@H]2CCCC[C@@H]2CN1C[C@@H](O)[C@H](Cc1ccccc1)NC(=O)[C@H](CC(N)=O)NC(=O)c1ccc2ccccc2n1 |  | human, maternal placental perfusate | pH 7.4 | 0.06 |
| Cc1sc2c(c1C)C(c1ccc(Cl)cc1)=N[C@@H](CC(=O)Nc1ccc(O)cc1)c1nnc(C)n1-2 | equilibrium dialysis | mouse plasma | 10 µM, 4 h, pH 7.4 | 0.0199 ± 0.0034 |
| CNC(C)Cc1ccc2c(c1)OCO2 (centres unmarked) | rapid equilibrium dialysis | human plasma | 1000 ng/mL | 0.88 |
